Measurements gathered from unrelated publications.
Protocols differ between the studies behind these lines. Numbers after ± are the reported error.
VRK1: Serine/threonine-protein kinase VRK1 (VRK1, Homo sapiens, UniProt Q99986)
Adhesin FmlH lectin domain: Adhesin FmlH, lectin domain (Escherichia coli, UniProt Q1RBS0)
USP51: Ubiquitin carboxyl-terminal hydrolase 51 (USP51, Homo sapiens, UniProt Q70EK9)
CAPN1: Calpain-1 catalytic subunit (CAPN1, Homo sapiens, UniProt P07384)
HTR5A: 5-hydroxytryptamine receptor 5A (HTR5A, Homo sapiens, UniProt P47898)
MAL12: Alpha-glucosidase MAL12 (MAL12, Saccharomyces cerevisiae S288c, UniProt P53341)
BDKRB1: B1 bradykinin receptor (BDKRB1, Homo sapiens, UniProt P46663)
PLG: Plasminogen (PLG, Homo sapiens, UniProt P00747)
PTGS1: Prostaglandin G/H synthase 1 (PTGS1, Ovis aries, UniProt P05979)
HRH2: Histamine H2 receptor (HRH2, Homo sapiens, UniProt P25021)
ACE: Angiotensin-converting enzyme (ACE, Homo sapiens, UniProt P12821)

| Compound | target | test | system | setting | inhibition |
| --- | --- | --- | --- | --- | --- |
| CN(Cc1ccc(/C=C/C(=O)NO)cc1)CC12CC3CC(CC(C3)C1)C2 | human ETA receptor | agonist radioligand binding | – | 0.05 µM | -8% |
| CN1CC[C@@H](COc2cnc(C#N)cc2-c2ccn3nc(NC(=O)C4CC4)cc3c2)C1 | VRK1 | enzyme activity, inhibitor | – | 1 µM | 4% |
| Cc1ccccc1O[C@H]1O[C@H](CO)[C@H](O)[C@H](O)[C@H]1O | Adhesin FmlH lectin domain | binding to desialylated mucin, ELISA competition | UPEC UTI89 | 100 µM | 30 ± 5.4% |
| CC(=O)c1ccc(NC(=O)CN2CCC(c3nc(-c4cccc(F)c4)no3)CC2)cc1 | DRD2 (Homo sapiens, UniProt P14416) | enzyme activity, inhibitor | – | 10 µM | 21.8% |
| COC(=O)c1cccc(-c2ccccc2O[C@@H]2O[C@H](CO)[C@H](O)[C@H](O)[C@H]2O)c1 | Adhesin FmlH lectin domain | binding to desialylated bovine submaxillary mucin, inhibitor, ELISA competition | UPEC UTI89 | 1 µM | 3.7 ± 3.5% |
| CCOc1cc(C(=O)Nc2ccc3c(c2)N(C(=O)c2ccccc2)CCC3)cc(OCC)c1OCC | USP51 | enzyme activity, inhibitor | – | 1 µM | 3.9 ± 3.8% |
| C[Si]1(C[C@H](CN)CC(=O)O)CCCC1 | Interleukin-6 receptor subunit alpha (IL6R, Homo sapiens, UniProt P08887) | binding, radioligand binding | – | 70 µM | -4% |
| COc1cc(OC)cc(O[C@@H]2O[C@H](CO)[C@H](O)[C@H](O)[C@H]2O)c1 | Adhesin FmlH lectin domain | binding to desialylated mucin, ELISA competition | UPEC UTI89 | 10 µM, added: desialylated bovine submaxillary mucin | 11.7 ± 2.7% |
| CC(C)(C)CNC(=O)C[C@H](NC(=O)CCc1ccccc1)C(=O)N[C@@H](Cc1cccnc1)C(=O)NCc1ccccc1Cl | CAPN1 | enzyme activity, inhibitor | – | 100 µM | 50% |
| COc1cc(-c2nc3ncccn3c2Nc2ccc(C)c(Cl)c2)ccc1O | USP51 | enzyme activity, inhibitor | – | 1 µM | 19.3 ± 4.1% |
| NC(=O)[C@@H](O)C[C@H]1CCc2sc3ncnc(O[C@H]4CC[C@H](N5CCOCC5)CC4)c3c21 | VRK1 | enzyme activity, inhibitor | – | 10 µM | 19% |
| COc1ccc(C(=O)Nc2c(-c3cccs3)nc3ccccn23)cc1 | HTR5A | ligand displacement, radioligand | – | 10 µM | < 50% |
| COc1cc(-c2noc(CSc3nc(C)cc(O)n3)n2)cc(OC)c1OC | USP51 | enzyme activity, inhibitor | – | 1 µM | 4.8 ± 1% |
| O=c1ccc2ccc(O)c(Cn3ccnc3)c2o1 | MAL12 | inhibitor | – | 25 µM | < 0% |
| Cc1ccc(O[C@@H]2O[C@H](CO)[C@H](O)[C@H](O)[C@H]2O)cc1 | Adhesin FmlH lectin domain | binding to desialylated mucin, ELISA competition | UPEC UTI89 | 10 µM, added: desialylated bovine submaxillary mucin | 16.5 ± 3.3% |
| COc1cc(-c2nc3c4ccccc4ncn3n2)cc(OC)c1OC | USP51 | enzyme activity, inhibitor | – | 1 µM | 10.5 ± 2.8% |
| Cc1nc2c(F)cc(-c3nc(Nc4ccc(CNC(=O)CCCCCCC(=O)NO)cc4)ncc3F)cc2n1C(C)C | PDK4 (Homo sapiens, UniProt Q16654) | enzyme activity, inhibitor | – | 1 µM | 0% |
| C/C1=C\CC/C(C)=C/CC(C)(C)/C=C/C1 | Trpv1 (Rattus norvegicus, UniProt O35433) | ion current, inhibitor, outside-out patch clamp | – | 100 µM, added: pH 5.5 activation | 93 ± 3% |
| CCOC(=O)CCCCC1NCCc2ccc(O)c(O)c21 (stereo not shown) | MAL12 | enzyme activity, inhibitor | – | 100 µM, DMSO solvent, added: pNPG substrate | 20.2 ± 3.45% |
| COCC(=O)N1CCc2cc(-c3csc(NC(=O)c4cc(OC)cc(OC)c4)n3)ccc21 | BDKRB1 | cell-free assay | – | 10 µM | -7% |
| CO[C@@H](C)c1c(NC(=O)Nc2cnc(-n3nccn3)c(C(F)(F)F)c2)cnc2sc(C)nc12 | PTGER4 (Homo sapiens, UniProt P35408) | ligand displacement, radioligand | – | 10 µM | -2.4% |
| O=[N+]([O-])c1ccc(O[C@@H]2O[C@H](CO)[C@H](O)[C@H](O)[C@H]2O)cc1 | Adhesin FmlH lectin domain | binding to desialylated mucin, ELISA competition | UPEC UTI89 | 100 µM | 78.1 ± 0.6% |
| CC(C)NC(=O)[C@H](CCc1ccccc1)NC(=O)[C@H](CC(=O)NCC(C)(C)C)NC(=O)CCc1ccccc1 | PLG | enzyme activity, inhibitor | – | 100 µM | -18% |
| CS(=O)(=O)c1ccc(-n2cc(C=NN=c3[nH]c(-c4ccc(Br)cc4)cs3)c(-c3ccc([N+](=O)[O-])cc3)n2)cc1 (mixture of isomers) | PTGS1 | enzyme activity | – | 0.1 µM | 7.57% |
| C/C=C/C(=O)Nc1ccc2nc(NCCCCCN(C)C)nc(NCCCCCCN(C)C)c2c1 | KMT2C (Homo sapiens, UniProt Q8NEZ4) | enzyme activity, inhibitor, radiometric | – | 50 µM | 28% |
| COc1cc([C@@H](O)[C@H](O)CO)ccc1O | MAL12 | inhibitor | – | 100 µg/mL, 0.4167 h, added: p-nitrophenyl glucoside substrate | 35.1 ± 4.16% |

| Compound | target | test | system | setting | inhibition |
| --- | --- | --- | --- | --- | --- |
| OC[C@H]1O[C@@H](Oc2ccccc2-c2ccccc2)[C@H](O)[C@@H](O)[C@H]1O | Adhesin FmlH lectin domain | binding to desialylated bovine submaxillary mucin, inhibitor, ELISA competition | UPEC UTI89 | 1 µM | 8.1 ± 6% |
| O=C1c2sc(-c3ccc(N4CCC(CO)CC4)nc3F)nc2CCN1c1cccnc1 | HRH2 | ligand displacement, radioligand | – | 1 µM | -4% |
| COc1cc(-c2nc3c4sc5nc(C)cc(C)c5c4ncn3n2)cc(OC)c1OC | USP51 | enzyme activity, inhibitor | – | 1 µM | 3.7 ± 0.6% |
| O=C1c2sc(-c3ccc(N4CCC(F)C4)nc3F)nc2CCN1c1cccnc1 (stereo not shown) | BDKRB2 (Homo sapiens, UniProt P30411) | ligand displacement, radioligand | – | 1 µM | 7% |
| CCC(=O)N(C)c1ccc(Cl)c(Cl)c1 | HTR5A | ligand displacement, radioligand | – | 10 µM | < 10% |
| Cc1ccc(CN(C)C(=O)C(CCc2ccccc2)NC(=O)C(NC(=O)c2ccc(OCc3ccccc3)cc2)C(C)O)cc1 (stereo not shown) | CAPN1 | enzyme activity, inhibitor | – | 100 µM | -11% |
| COc1ccc(C2Nc3ccccc3-n3c(-c4ccccc4C)c4c(=O)n(C)c(=O)n(C)c4c32)cc1O (stereo not shown) | USP51 | enzyme activity, inhibitor | – | 1 µM | 3.6 ± 1% |
| COc1ccc(-c2cnn3ccc(Nc4cc(OC)c(OC)c(OC)c4)nc23)cc1OC | crk3, with CYC6 (Leishmania mexicana, UniProt O15851) | IMAP fluorescence polarisation | – | 30 µM, with L. major CYC6 | 72% |
| CS(=O)(=O)c1ccc(-n2cc(C=NN=c3[nH]c(-c4ccc(Br)cc4)cs3)c(-c3ccc(Br)cc3)n2)cc1 | PTGS1 | enzyme activity | – | 100 µM | 92.1% |
| Brc1ccccc1-c1nnc(CSc2nnnn2-c2ccccc2)o1 | HRH2 | ligand displacement, radioligand | – | 10 µM | 22% |
| COc1cc(-c2cn(C)c(=O)c3cnccc23)cc(OC)c1CN(C)C | Bromodomain testis-specific protein, BD1 (BRDT, Homo sapiens, UniProt Q58F21) | – | – | 1 µM | -16% |
| C[Si](C)(C)C[C@@H](CN)CC(=O)O | BDKRB1 | ligand displacement, radioligand | – | 75 µM | 17% |
| C#CCOC(=O)[C@]1(C)C=C(C(=O)OC(C)(C)C)C(=O)CC1 | MAPK1 (Homo sapiens, UniProt P28482) | kinase activity, inhibitor, Kinase-Glo luminescence | – | 10 µM | no inhibition |
| Cc1ccc(CNC(=O)[C@H](CCc2ccccc2)NC(=O)[C@H](CCc2ccccc2)NC(=O)Cc2cccc(Oc3ccccc3)c2)cc1 | PLG | enzyme activity, inhibitor | – | 100 µM | -12% |
| CCn1cc(-c2cccc(C(F)(F)F)c2)c2sc(C(=N)NC3CCS(=O)(=O)CC3)cc2c1=O | Bromodomain-containing protein 3, BD1 (BRD3, Homo sapiens, UniProt Q15059) | – | – | 1 µM | 2.84% |
| COc1ccc(NC(=O)c2nnn3cc(C)[nH]c(=O)c23)cc1OC | USP51 | enzyme activity, inhibitor | – | 1 µM | 48.5 ± 16.6% |
| CC[C@H](C)[C@H](NC(=O)[C@@H](N)C(C)C)C(=O)N[C@@H](Cc1ccc(O)cc1)C(=O)NCC(=O)N1CCC[C@H]1C(=O)N[C@@H](CO)C(=O)N[C@H](C(=O)N[C@@H](Cc1ccccc1)C(=O)O)C(C)C | ACE | enzyme activity, inhibitor, HPLC | – | 530 µg/mL | 75.3% |
| OC[C@H]1O[C@@H](Oc2cccc3cccnc23)[C@H](O)[C@@H](O)[C@H]1O | Adhesin FmlH lectin domain | binding to desialylated bovine submaxillary mucin, inhibitor, ELISA competition | UPEC UTI89 | 1 µM | 19.2 ± 2.8% |
| Cc1ccc(-c2nn(-c3ccc(S(C)(=O)=O)cc3)cc2C=NN=c2[nH]c(-c3ccc([N+](=O)[O-])cc3)cs2)cc1 | PTGS1 | enzyme activity | – | 10 µM | 60.3% |
| COc1ccc2c(c1)C(CC(=O)NC(C(=O)NC(CCc1ccccc1)C(=O)NCc1ccc(C)cc1)C(C)O)CC2=O (stereo not shown) | CAPN1 | enzyme activity, inhibitor | – | 100 µM | 8% |
| Cc1ccc(-c2nn(-c3ccc(S(C)(=O)=O)cc3)cc2C=NN=c2[nH]c(-c3ccc(Br)cc3)cs2)cc1 (mixture of isomers) | PTGS1 | enzyme activity | – | 100 µM | 84.2% |
| CC(C)[C@H](NC(=O)[C@@H](N)CCC(=O)O)C(=O)N[C@@H](CC(N)=O)C(=O)N[C@@H](Cc1ccc(O)cc1)C(=O)N[C@@H](CC(=O)O)C(=O)N[C@@H](Cc1ccccc1)C(=O)NCC(=O)NCC(=O)N[C@@H](CCCCN)C(=O)O | ACE | enzyme activity, inhibitor | – | 1.4 mM | 76.8% |
| CS(=O)(=O)c1ccc(-n2cc(C=NN=c3[nH]c(-c4ccc([N+](=O)[O-])cc4)cs3)c(-c3ccc(Br)cc3)n2)cc1 | PTGS1 | enzyme activity | – | 0.01 µM | 6.49% |
| O=[N+]([O-])c1ccccc1O[C@@H]1O[C@H](COP(=O)(O)O)[C@H](O)[C@H](O)[C@H]1O | Adhesin FmlH lectin domain | binding to desialylated mucin, ELISA competition | UPEC UTI89 | 100 µM | 1.3 ± 4.7% |
| COC(=O)C1C(c2ccc(C)cc2)c2c(O)n[nH]c2CC1(C)O (stereo not shown) | USP51 | enzyme activity, inhibitor | – | 1 µM | 10.2 ± 3.1% |
| CC(C)Cc1ccc(-c2nn(-c3ccc(S(C)(=O)=O)cc3)cc2C=NN=c2[nH]c(-c3ccc(Br)cc3)cs2)cc1 | PTGS1 | enzyme activity | – | 0.1 µM | 11.4% |

A few entries again:
| Compound | target | test | system | setting | inhibition |
| --- | --- | --- | --- | --- | --- |
| CC(C)(C)CNC(=O)C[C@H](NC(=O)CCc1ccccc1)C(=O)N[C@@H](Cc1cccnc1)C(=O)NCc1ccccc1Cl | CAPN1 | enzyme activity, inhibitor | – | 100 µM | 50% |
| COc1cc(-c2nc3ncccn3c2Nc2ccc(C)c(Cl)c2)ccc1O | USP51 | enzyme activity, inhibitor | – | 1 µM | 19.3 ± 4.1% |
| NC(=O)[C@@H](O)C[C@H]1CCc2sc3ncnc(O[C@H]4CC[C@H](N5CCOCC5)CC4)c3c21 | VRK1 | enzyme activity, inhibitor | – | 10 µM | 19% |
| COc1ccc(C(=O)Nc2c(-c3cccs3)nc3ccccn23)cc1 | HTR5A | ligand displacement, radioligand | – | 10 µM | < 50% |
| COc1cc(-c2noc(CSc3nc(C)cc(O)n3)n2)cc(OC)c1OC | USP51 | enzyme activity, inhibitor | – | 1 µM | 4.8 ± 1% |
| O=c1ccc2ccc(O)c(Cn3ccnc3)c2o1 | MAL12 | inhibitor | – | 25 µM | < 0% |
| Cc1ccc(O[C@@H]2O[C@H](CO)[C@H](O)[C@H](O)[C@H]2O)cc1 | Adhesin FmlH lectin domain | binding to desialylated mucin, ELISA competition | UPEC UTI89 | 10 µM, added: desialylated bovine submaxillary mucin | 16.5 ± 3.3% |
